Measured values collected from several papers.
Every numbered part comes from another study and shows a few of its results, in no order. Changes are numbered by the printed parent chain.

Series 1
Target: RING finger protein unkempt homolog, zinc fingers 1-6, GST-SBP tag (UNK, Homo sapiens, UniProt Q9C0B0, residues 30-357)
Technique: RNA Bind-n-Seq
Molecule type: RNA
Sample: in vitro
Concentration: not given
Setting: RNA with constant flanks, human and mouse sites, ends assumed
Reference: input RNA pool
Reading: higher = stronger binding
Target sequence (chain): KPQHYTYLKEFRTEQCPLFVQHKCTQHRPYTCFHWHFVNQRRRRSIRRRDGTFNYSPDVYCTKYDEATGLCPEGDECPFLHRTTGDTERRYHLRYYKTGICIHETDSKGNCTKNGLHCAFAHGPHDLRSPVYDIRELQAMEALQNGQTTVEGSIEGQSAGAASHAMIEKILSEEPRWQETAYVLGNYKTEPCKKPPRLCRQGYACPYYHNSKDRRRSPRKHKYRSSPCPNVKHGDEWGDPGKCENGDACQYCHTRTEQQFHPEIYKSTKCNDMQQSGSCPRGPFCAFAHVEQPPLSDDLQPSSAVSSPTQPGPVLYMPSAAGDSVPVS
Strand	bound/input enrichment
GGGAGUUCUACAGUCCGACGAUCGAAGCUGACAAGUGGAGCACGCUGAGUGCUGAUAUUGAGGAGACCUUCAAAACUCAAGACAUAGCUGUGAUUUCUGCAAAGCUGACCGGCAUGCAGAACAGCUUGAUGAUGCUUGUGGAUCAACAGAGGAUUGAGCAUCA	0.13 ratio
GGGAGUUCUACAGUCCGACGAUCCAGCUGCUUACCUGAACAUAACCUUAUGCUGCCCUUGGCUUGGCCACAUUUGUUAAAUCCUUAUUAUAUUGAUACUCUUCUUGAGGAGGAAAUCUCACCUUUUCUUUUUCAAGAGAUUCUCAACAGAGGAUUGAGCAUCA	0.413 ratio
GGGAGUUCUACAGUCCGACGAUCCAUGCUGAUCUGUGGCCAGCCAAACAAUACCCACUUGUCACGCCAAAUGAAGAGAGAAAUGUCAUGGAAGAGGGAAAAGACUUUCAGCCCUCAAGAUCUACAGCUCAACAGGAACUUGAUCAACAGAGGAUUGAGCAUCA	0.0803 ratio
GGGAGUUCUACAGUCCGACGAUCCGUCUUAAUUAUGCGCAGUGGUAUCCAAUUGUUGUGUUCCUUAACCCUGACUCUAAGCAAGGUGUAAAAACAAUGAGGAUGAGGUUGUGUCCGGAGUCUCGGAAAAGCGCCAGGAAGCUACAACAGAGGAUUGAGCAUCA	0.414 ratio
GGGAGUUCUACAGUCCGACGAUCUCCAGCCGGUGUGAAGAGGAGACCCCUUCCCUCUUGUGGGGUUUGGAUCCUGUGUUUCUAGCCUUUGCAAAACUCUACAUCAGGGAUAUCCUGGACAUGAAGGAGUCCCGCCAGGUGCCACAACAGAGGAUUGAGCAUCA	0.114 ratio
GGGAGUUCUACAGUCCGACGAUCAGCGGAGGCUCAGGAGCCAAGCCCUCAGACGCAGCAUCAGAAGCUGCUCGCCCAGCUACUAGUACUUUGAAUCGCUUCUCAGCCCUUCAACAAGCGGUACCCACAGAAAGCACAGAUAAUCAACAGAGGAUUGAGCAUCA	0.297 ratio
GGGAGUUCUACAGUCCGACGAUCAAGGAAAUGCUGGCUGCAAACCCUCAGGAUCGUCCAGAUGCUUUUGAACUAGAACUCAGAUUAGUACAAAUUGCAUUUAAAGAUAGCAGCUGGGAAACGUGACACAUAUUAUUUGCAAAUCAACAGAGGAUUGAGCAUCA	4.54 ratio
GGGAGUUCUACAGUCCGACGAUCGCCAGCCGAGACGGAUAUCCGAUUAUAUUAUAUGAAAUUCCUUCUGGACGUUUUAUGAGAGAAUUGUGUGGCCACCUCAAUAUCAUUUAUGAUCUCGACUGGUCAAAAGACGAUCGCUAUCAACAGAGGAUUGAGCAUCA	0.23 ratio
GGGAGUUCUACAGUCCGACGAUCCACUGGAUUGCUCUGCAACCAAAGAAAGCAAUAUGGAAUGAAAAAACUCAUUCACUUUUGUCUUAUUUUCUUUUAAGGUGUAUUGGCAUGUAAUUUGCAUAGAGAAGGUCCUCUGGUUAGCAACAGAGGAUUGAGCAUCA	0.167 ratio
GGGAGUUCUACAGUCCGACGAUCUAAAUACAUAUAUAUUUGCUUGACGAAUCACCAAGCACAUUGGUGAGAGGGUCUUUUCCUAUAGAAUUCACUCAUCCGUUUUGUUGUGUUGUCCUGAGCUUCCCAAUGUUGAGGUCUCUACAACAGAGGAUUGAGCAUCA	0.42 ratio
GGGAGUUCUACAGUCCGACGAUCGCUUUGACUUCGAAAAAAGCAAGGUUUGAUCCAUAUGGAAAAAAUAAGUUCUCCACUUGCAGAAUUUGUAAAAGUUCUGUACACCAGCCAGGUUCUCAUUACUGUCAAGGCUGCGCCUACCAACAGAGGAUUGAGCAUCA	0.0919 ratio

Series 2
Target: CCNB1, cyclin fold, Cln2 fusion (human)
Technique: yeast growth competition, sequencing
Sample: yeast
Setting: weak parent motif
Reference: not given
Reading: higher = stronger binding
Starting sequence: WEE1 docking peptide (human); HKTFRKLRLFDTP
Substitution	normalised enrichment score
HKTFRKLLLFDTP [R8L]	0.704
HKTFRKLRLFDVP [T12V]	1.08
HKTFRKLFLFDTP [R8F]	0.43
HKTFRHLRLFDTP [K6H]	0.196
HKTFRKLRLFDTR [P13R]	-0.891
AKTFRKLRLFDTP [H1A]	0.331
HNTFRKLRLFDTP [K2N]	0.203

Series 3
Target: Interferon regulatory factor 3, full length, phosphomimetic (IRF3, Homo sapiens, UniProt Q14653, residues 1-427, S386D/S396D/S398D/S402D/T404D/S405D)
Technique: protein-binding microarray
Molecule type: double-stranded DNA, one strand shown
Sample: in vitro
Concentration: 2540 nM top
Setting: 60-bp whole probe
Added: salmon DNA 0.4 mg/ml
Reference: random background probes
Reading: higher = stronger binding
Shared flanks, not repeated: GCCTAGCAC … GTCTTGATTCGCTTGACGCTGCTG
Construct (chain): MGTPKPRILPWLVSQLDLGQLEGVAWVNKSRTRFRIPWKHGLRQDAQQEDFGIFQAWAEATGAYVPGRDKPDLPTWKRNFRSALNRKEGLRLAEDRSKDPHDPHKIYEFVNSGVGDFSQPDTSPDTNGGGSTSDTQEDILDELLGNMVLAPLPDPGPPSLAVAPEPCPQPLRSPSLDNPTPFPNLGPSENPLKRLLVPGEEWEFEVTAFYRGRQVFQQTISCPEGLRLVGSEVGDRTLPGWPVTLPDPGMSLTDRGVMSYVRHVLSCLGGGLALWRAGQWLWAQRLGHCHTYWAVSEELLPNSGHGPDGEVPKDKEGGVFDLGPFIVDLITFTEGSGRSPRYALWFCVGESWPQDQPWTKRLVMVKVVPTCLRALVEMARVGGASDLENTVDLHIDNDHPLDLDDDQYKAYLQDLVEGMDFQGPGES
Strand	fitted relative affinity [z-score]
TCATATTTGTCCCTATTACTGTGCTAG	1.52
TCATTTTTCACCTGCACACTGTGCTAG	1.58
TAAGAACTGGGGACTGGATTAGTGCTA	-0.899
TCAGATTTTCCCATGAGACTGTGCTAG	0.499
TCATATAGGTTGTTTCTAACTGTGCTA	0.81
TTAGGTTTCGGGCATCGGTTAGTGCTA	2.05
GACGGTTTCGGTCTGGGGACGTGCTAG	7.06
GACGACATCGGGTATCGAGACGTGCTA	-0.478
GAAGGTATCCTACTGCTGACGTGCTAG	2.6
TTAGGTCTCCTACTGCGTTAGTGCTAG	0.89
TTAGGACTGCTGATCCTTTAGTGCTAG	-0.397
TCATATTTATAAATTATACTGTGCTAG	0.794
TTAGGACTGGGGACGGGGTTAGTGCTA	-0.62

Other studies, line by line
Molecule	target	test	test system	setting	how to read	quantity	value
PhoQ, residues 284 288 289 292 302 303 TLMATV	PhoP, residues 12 14 15 18 19 TQAIL (Escherichia coli, UniProt P23836)	Sort-seq, refers to: YFP reporter	E. coli	PhoQ-PhoP variant library, added: 10 µM Mg2+	reference: high Mg2+ state, higher = stronger signaling	fold induction	2.1

For quick reference, copied from above (series 3):
Strand	fitted relative affinity [z-score]
TCATATAGGTTGTTTCTAACTGTGCTA	0.81
TTAGGTTTCGGGCATCGGTTAGTGCTA	2.05
GACGGTTTCGGTCTGGGGACGTGCTAG	7.06
GACGACATCGGGTATCGAGACGTGCTA	-0.478
GAAGGTATCCTACTGCTGACGTGCTAG	2.6
